# Values quoted from earlier work, collected from citations in different studies.
# Protocols differ between the studies behind these lines. ± marks the error that the study gave.
Compound,tested on,test,system,setting,how to read,measurement,value
C[S+]([O-])c1ccc(Nc2nc(OCC3CCCCC3)c3nc[nH]c3n2)cc1 (centres unmarked),JNK1,,,,more negative = stronger binding,binding free energy,-9.14 kcal/mol
O=c1ccc(OCCCN2CCCCC2)nn1-c1ccc(Cl)c(Cl)c1,adrenergic α2 receptor,,,1.0 µM,,inhibition,10.6 ± 0.9%
COc1ccc(Nc2nc(Nc3ccc(OCC[18F])cc3)ncc2Br)cc1,,,"S180 tumour-bearing mice, lung","intravenous, 15 min",,tissue uptake,8.96 ± 1.35 %ID/g
CCN(CC)c1ccc(C(=O)C=C(O)C(F)(F)C(F)(F)F)cn1,Plasmodium falciparum formate-nitrite transporter,"L-lactate transport, inhibitor, radiolabelled uptake",yeast,,,IC50,0.38 ± 0.32 µM
CS(=O)(=O)Nc1ccc(-c2cncc(-c3cccc4cc[nH]c34)c2)cc1,TNIK,,,1 µM,,remaining activity,< 30%
COCCCNc1ccc(C(=O)C=C(O)C(F)(F)C(F)(F)F)cn1,Plasmodium falciparum formate-nitrite transporter (PfFNT),"L-lactate transport, radiolabelled uptake",yeast,,,IC50,0.16 µM
O=C(CCCOc1ccc(Cl)cc1)N[C@H]1CCOC1=O,"RhlR, Pseudomonas aeruginosa","reporter gene, antagonist, rhlA-gfp reporter",,1 mM,,inhibition,50%
CN(CCN)Cc1ccccc1Sc1ccccc1Cl,CARM1 (PRMT4),"enzyme activity, inhibitor",,,reference: IC50 CARM1 over PRMT1,selectivity ratio,60 fold
C/C(N)=N/C(=N\S(=O)(=O)c1ccc(C(F)(F)F)cc1)N1C[C@@H](c2ccccc2)C(c2ccc(Cl)cc2)=N1,cannabinoid CB1 receptor,receptor activity,,concentration not given,,effect,no effect
FC(F)(F)c1ccccc1-c1nc(NCc2cccs2)c2ccccc2n1,PI5P4Kγ,inhibitor,,10 µM,reference: control,remaining activity,8.8%
COc1cc(F)cc2c(N3CCN4c5c(F)cccc5OC[C@@H]4C3)c(C#N)nnc12,mGluR1-5 and mGluR8,,,selectivity over mGlu7,,EC50,> 30 µM
CCC(=O)Nc1ccc(C(=O)C=C(O)C(F)(F)C(F)(F)F)cn1,Plasmodium falciparum formate-nitrite transporter,"L-lactate transport, inhibitor, radiolabelled uptake",yeast,,,IC50,0.25 ± 0.02 µM
c1ccc2c(c1)CCCNC2c1c[nH]c2ccccc12 (centres unmarked),P-glycoprotein (ABCB1),inhibitor,,20 µM,"reference: untreated cells, higher = stronger inhibition",fluorescence activity ratio,2.6
CCCCCNc1ccc(C(=O)C=C(O)C(F)(F)C(F)(F)F)cn1,Plasmodium falciparum formate-nitrite transporter,"L-lactate transport, inhibitor, radiolabelled uptake",yeast,,,IC50,0.39 ± 0.03 µM
COc1cc2c(cc1OC)C(c1c[nH]c3ccccc13)NCC2 (centres unmarked),P-glycoprotein (ABCB1),inhibitor,,20 µM,"reference: untreated cells, higher = stronger inhibition",fluorescence activity ratio,4.04
C[C@H](CN(C)Cc1ccccc1)NC(=O)c1ccc(-c2noc(C(F)(F)F)n2)cc1,class I/IIb HDAC,"enzyme activity, inhibitor",HT-29,,,IC50,> 1 µM
CCCCNc1ccc(C(=O)C=C(O)C(F)(F)C(F)(F)F)cn1,Plasmodium falciparum formate-nitrite transporter,"L-lactate transport, inhibitor, radiolabelled uptake",yeast,,,IC50,0.33 ± 0.01 µM
O=C(CCCOc1cccc(Br)c1)N[C@H]1CCSC1=O,RhlR,"rhlA-gfp reporter, partial agonist",,20 µM,,activation,~75%
CC(C)Nc1ccc(C(=O)C=C(O)C(F)(F)C(F)(F)F)cn1,Plasmodium falciparum formate-nitrite transporter,"L-lactate transport, inhibitor, radiolabelled uptake",yeast,,,IC50,0.15 ± 0.01 µM
CSCC[C@H](NC(=O)[C@H](CC(C)C)NC(=O)[C@H](CC(C)C)NC(=O)CNC(=O)[C@H](C)NC(=O)[C@H](C)NC(=O)[C@H](CCCNC(=N)N)NC(=O)CNC(=O)[C@@H](NC(=O)[C@@H](NC(=O)[C@H](Cc1c[nH]cn1)NC(=O)[C@H](Cc1ccc(O)cc1)NC(=O)[C@H](CCCNC(=N)N)NC(=O)[C@@H]1CCCN1C(=O)[C@H](CO)NC(=O)[C@H](C)NC(=O)[C@@H](NC(=O)[C@H](Cc1c[nH]cn1)NC(=O)[C@H](CCCCN)NC(=O)[C@H](Cc1ccc(O)cc1)NC(=O)[C@@H](N)Cc1c[nH]c2ccccc12)C(C)C)[C@@H](C)O)C(C)C)C(=O)NCC(=O)N[C@@H](CC(C)C)C(N)=O,NPBWR1,,,literature value,,EC80,0.02 µM
